Assay results gathered from unrelated publications.
Protocols differ between the studies behind these lines. Several values in a cell are separate wells, animals, samples, runs or records.
Cell line: PC-3

For `CCc1c(C)c2ccc(OC(C)C)c(C)c2oc1=O`, the viability was 2.24% (cell growth or viability, MTT; 1000 µg/mL).
`O=C1CCP(=O)(c2ccccc2)CC1` has a selectivity index of 1 (MTT; 72 h; relative to: IC50 HaCaT over IC50 PC-3).
The phototoxicity index of `Nc1cc2cccnc2c2ncccc12.[Cl-].[Cl-].[Ru+2].c1cnc2c(c1)ccc1cccnc12.c1cnc2c(c1)ccc1cccnc12` is reported as 9 and > 9 (MTT; relative to: IC50 dark over light).
`O=C(CCl)c1ccccc1Nc1cccc(C(F)(F)F)c1` has a GI50 of 11.7 µM (cell growth or viability, SRB; 48 h).
`CCN(C(=O)c1cc(F)ccc1Oc1nncnc1N1CCC2(C1)CN([C@H](CCCN(C)CCOC)C(C)C)C2)C(C)C` has a GI50 of > 10 µM (cell growth or viability; 72 h).
For `CCCCCCC(=O)[O][Pt]([NH2])([NH2])([Cl])([Cl])[O]C(=O)CCC(C)C1CCC2C3CCC4CC(O)CCC4(C)C3CCC12C` (centres unmarked), “cells in S phase” read 36.2% (PI flow cytometry; 2 µM, 48 h).
`C=C(NC(=O)c1csc(-c2ccc(NC(=O)CCCCCBr)cc2)n1)C(=O)NC(=C)C(=O)OC` gave an EC50 of 8 µM (cell growth or viability).
`[BH3-][P+]1(c2ccccc2)CCCCC1` has a necrotic cells of 0.15% (annexin V/PI flow cytometry; IC50, 72 h).
For `COc1cc(/C=C/C(=O)/C=C(O)/C=C/c2ccc(OCC(=O)N3CCOCCOCCOCCOCC3)c(OC)c2)ccc1OCC(=O)N1CCOCCOCCOCCOCC1`, the inhibition was 90% (cell growth or viability, SRB; 25 µM).
`CCS(=O)(=O)Oc1cc(/C=N/NC(=O)c2nc3ccccc3s2)ccc1OC` has a cell death of 32% (cell growth or viability, MTT; 100 µM, 48 h).
With `COc1cc(/C=C/C(=O)/C=C(O)/C=C/c2ccc(OCC(=O)N3CCOCCOCCOCCOCCOCC3)c(OC)c2)ccc1OCC(=O)N1CCOCCOCCOCCOCCOCC1` the inhibition was 95% (cell growth or viability, SRB; 25 µM).
The cell growth of `O=C(Nc1nnc2c1c(-c1ccc(Cl)cc1)nc1sc(=Cc3ccco3)c(=O)n12)c1ccccc1` (mixture of isomers) is reported as 64.5% (SRB; 10 µM, NCI60 single-dose screen, prostate cancer; relative to: untreated).
`C#CC[C@]1(O)C[C@H](C)N2CCc3cc(OCc4cc(C)cc(C)c4)c(OCc4cc(C)cc(C)c4)cc3[C@@H]2C1` (relative stereo) has an IC50 of 0.478 µM (cell growth or viability, MTT).
For `COC(=O)[C@H](C)NC(=O)[C@H](C)NC(=O)c1csc(-c2cccnc2)n1`, the EC50 was > 30 µM (cell growth or viability).
